Published values from different studies.
Parts stem from different laboratories: compare values within a part only. Positions count from the first letter of the parent shown.

Block 1
Target: Centromere-binding protein 1, full length, N-terminal tag (CBF1, Saccharomyces cerevisiae, UniProt P17106, residues 1-351)
Sequence of UniProt P17106 (whole entry, looked up): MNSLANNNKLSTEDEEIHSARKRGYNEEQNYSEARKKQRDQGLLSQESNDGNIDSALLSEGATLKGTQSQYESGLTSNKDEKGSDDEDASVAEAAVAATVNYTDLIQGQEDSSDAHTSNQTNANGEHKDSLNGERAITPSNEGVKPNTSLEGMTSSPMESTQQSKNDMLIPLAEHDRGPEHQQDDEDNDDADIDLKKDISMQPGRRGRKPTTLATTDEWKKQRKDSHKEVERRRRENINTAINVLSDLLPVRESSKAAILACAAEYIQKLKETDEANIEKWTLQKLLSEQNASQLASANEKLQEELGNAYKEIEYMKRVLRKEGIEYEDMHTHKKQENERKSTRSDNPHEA
Method: protein-binding microarray
Molecule type: double-stranded DNA, one strand shown
Medium: in vitro
Tested at: 0.8 µM
Notes: whole 60-bp probe, no competitor
Reading: higher = stronger binding
Shared flanks, not repeated: … GTCTTGATTCGCTTGACGCTGCTG
| Sequence | fluorescence intensity |
| --- | --- |
| CTATGAAAAGCTGCCAACGTGACCTTACGTTCTTTC | 2520 a.u. |
| CTAAAAAGGACTTGTCACATGAAATTTAGGTCGTTC | 898 a.u. |
| CTAAAAGCTGCCAACGTGACCTTACGTTCTGATTTC | 2920 a.u. |
| CCTAACTACTATAATCATGTGACATAGCTTCGTACA | 4470 a.u. |
| CTACAAGAGGCCCATCAGGTGATCCATGATAACTTC | 2790 a.u. |
| CCTAACTACTATAATCACGACATATAGCTTCGTACA | 749 a.u. |
| CTATATGTATGTATGCACATGCAATTCCTACATTTC | 617 a.u. |
| GAATGTAGATCACAATTGGTCACAAAGAACAATTAG | 547 a.u. |
| GAATGAGATGTGACTAACGTGAGCGCTTACGAATAG | 563 a.u. |
| TGTACGAAGCTATTTAATGATCATATAGTAGTTAGG | 579 a.u. |
| CCTAACTACTATAAGCACGTGCGATAGCTTCGTACA | 10100 a.u. |
| GAAAATCTTTTCAGTGACGTCAGGACCGGTTTTTAG | 517 a.u. |
| GAAGAAACTCCCGCACGTGTGCCCCGTTTGTTGTAG | 4960 a.u. |
| GAAATAGATAGCCCTGTCACCAGTATCGGGTGTTAG | 512 a.u. |
| CTAAATGAGTGGAAGCGCGTGGAAGCCCGTCTATTC | 506 a.u. |
| TGTACGAAGCTATTGCACGTGTCTATAGTAGTTAGG | 5740 a.u. |
| CTATTCAAACCATGTGACACCAAACTTCGCAATTTC | 6250 a.u. |
| CTATAATGTGCACGTGATGTGGCGTGATGGTCCTTC | 17300 a.u. |
| CTATTCGTTATTTATGGCATCACGATTATTCTCTTC | 653 a.u. |
| CTACATGGGTTAAATTTTACATCAGATTTTTGATTC | 534 a.u. |
| CCTAACTACTATATTCACGTGCTATAGCTTCGTACA | 4510 a.u. |

Block 2
Target: CCNB1, cyclin fold, Cln2 fusion (human)
Method: yeast growth competition, sequencing
Medium: yeast
Notes: weak parent motif
Reference: not given
Reading: higher = stronger binding
Parent: WEE1 docking peptide (human); HKTFRKLRLFDTP
| Change | normalised enrichment score |
| --- | --- |
| HKTFRELRLFDTP [K6E] | -0.0624 |
| HKTFRKLRNFDTP [L9N] | 0.685 |
| HKTPRKLRLFDTP [F4P] | 0.15 |
| RKTFRKLRLFDTP [H1R] | 2.09 |
| LKTFRKLRLFDTP [H1L] | 0.85 |
| HNTFRKLRLFDTP [K2N] | 0.203 |
| HKTFVKLRLFDTP [R5V] | -0.809 |
| DKTFRKLRLFDTP [H1D] | 0.973 |
| HKTFRKLDLFDTP [R8D] | 0.438 |
| HKTKRKLRLFDTP [F4K] | 0.644 |
| HKTFRKLRLKDTP [F10K] | 0.249 |
| HKTFRKDRLFDTP [L7D] | -0.191 |
| HKTFRKLLLFDTP [R8L] | 0.704 |
| HKTFRKLQLFDTP [R8Q] | 1.37 |
| HKTFRKLNLFDTP [R8N] | 1.03 |
| HGTFRKLRLFDTP [K2G] | 0.48 |
| HKTFRKLRLFDTW [P13W] | 0.503 |

Block 3
Target: CEBPE, bZIP domain (human)
Method: DHFR protein complementation
Medium: yeast
Notes: single substitutions, most at no-binding floor
Reference: wild-type JUN-FOS pair
Reading: higher = stronger binding
Parent: JUN, bZIP domain (human); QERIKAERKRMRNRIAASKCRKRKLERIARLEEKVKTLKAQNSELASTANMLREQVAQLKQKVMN; partner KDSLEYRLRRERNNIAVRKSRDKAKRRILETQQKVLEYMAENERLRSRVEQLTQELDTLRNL
| Change | binding fitness |
| --- | --- |
| K39G | -1.34 natural log |
| A29Y | -1.22 natural log |
| I28S | -1.31 natural log |
| V56F | -1.46 natural log |
| A40P | -1.46 natural log |
| T37S | -1.07 natural log |
| M51Q | -1.07 natural log |
| E33F | -1.38 natural log |
| L31Q | -1.5 natural log |
| R30D | -0.933 natural log |
| E54P | -1.49 natural log |
| R53K | -0.935 natural log |
| A46F | -1.33 natural log |
| I28C | -1.27 natural log |
| A29F | -1.32 natural log |
| A57H | -1.22 natural log |
| E44W | -1.39 natural log |

Block 4
Target: RING finger protein unkempt homolog, zinc fingers 1-6, GST-SBP tag (UNK, Homo sapiens, UniProt Q9C0B0, residues 30-357)
Method: RNA Bind-n-Seq
Molecule type: RNA
Medium: in vitro
Tested at: not given
Notes: RNA with constant flanks, human and mouse sites, ends assumed
Reference: input RNA pool
Reading: higher = stronger binding
Shared flanks, not repeated: GGGAGUUCUACAGUCCGACGAUC … CAACAGAGGAUUGAGCAUCA
Construct (chain): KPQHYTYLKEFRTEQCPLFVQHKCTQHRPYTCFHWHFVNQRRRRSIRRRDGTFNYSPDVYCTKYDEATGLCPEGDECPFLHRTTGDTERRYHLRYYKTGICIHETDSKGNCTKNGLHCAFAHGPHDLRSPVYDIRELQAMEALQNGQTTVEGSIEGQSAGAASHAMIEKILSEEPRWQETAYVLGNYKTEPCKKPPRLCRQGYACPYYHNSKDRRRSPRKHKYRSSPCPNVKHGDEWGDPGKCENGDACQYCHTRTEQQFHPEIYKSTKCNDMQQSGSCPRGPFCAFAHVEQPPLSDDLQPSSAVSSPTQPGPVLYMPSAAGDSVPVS
| Sequence | bound/input enrichment [ratio] |
| --- | --- |
| GAAGUCACCUCAAAGCGAGCCCACAUGUUGAUUGACAUGCACUUUCGAAGUCUGCGCACCAAGUUGUCUCUUAUACUGAGAAAUGAAGAAGCCAGUAAACAACUGGAGAGUUCAAGGCAG | 0.128 |
| GUGAGCUGUGUGCCUUGUUUGGGGGGUGUGGGGGACUUCUCCCAGUGGUGACACUGAACUUUAGGAGAAAAUGCGAAUGGGUAGGAGGACGGUCUUAUUUGAGUCACUUAAGGAGCAAGG | 1.46 |
| AACUAUUUUUCUUUGCUCAUGGGCUGGAUGGGAAUUACCCCUCCUCCAGUGCAAUGUCAUCAUAGACUGUCCAUGACAGAUGAUAGCAAAAAGCAGGAUCUUAGUUCAUCUUUAACAGAU | 0.231 |
| AAGCCUUAAGCACAAUUAAUUAAAAGUGAAACGUAAUUGUACAAGCAGUUAAUCACCCACCAUAGGGCAUGAUUAACAAAGCAACCUUUCCCUUCCCCCGAGUGAUUUUGCGAAACCCCC | 0.452 |
| AUACCAACUGAGGUGGCUAUAGAGUCCACACCAAUGAUACUGGAAUCUAGUAUCAUGUCAUCACAUGUUAUGAAAGGAAUUAAUCUAUCCUCUGGUGAUCAAAAUCUUGCUCCAGAGAUU | 0.0982 |
| GUUGGAUUUCAUUUCCCCAGGUCUUCAGUGUUGAUGUAAAUGUGUUUUGUAGUGUUGCUUAGCACUUUGCGCAUUGUGUAAGUUGGGUAACAAAAAUGGCAAAAGAAAUGCAGAUUUCCC | 0.391 |
| CGUCUUAAUUAUGCGCAGUGGUAUCCAAUUGUUGUGUUCCUUAACCCUGACUCUAAGCAAGGUGUAAAAACAAUGAGGAUGAGGUUGUGUCCGGAGUCUCGGAAAAGCGCCAGGAAGCUA | 0.414 |
| GUUACUGGGACCUUGGAGACCAAAUACAAGUGGUGUGAGUAUGGUCUGACUUUCACAGAAAAGUGGAACACUGAUAACACUCUGGGAACAGAAAUCGCAAUUGAAGACCAGAUUUGUCAA | 0.125 |
| GGCUGUGUAGGGGAGGAAGGGGUGCAUGCAUGUCCCCCACCCUCCACAGUCUUCCUUGCCUUUAGAGUGACCCUGCAGAGUCACUCAGCCAAAUCUGUCUGCUGCUCCCUCUCCUCAGCC | 0.151 |
| AGCCACAAAAUAUUUAAUGUGUUGUGCCUUCAUGAUGUAACAGAACAUUCUCCAGGUAGGUAGUUGGGGAAAAUAAAGGGAUAAAUCUCUAAUUAUUGCUGUUUAACUGUUUGUUAUCAU | 0.418 |
| CCCAUGCCGAGGCUCACCUUCCAGGCGGGGGACCCCUACUACAUCAGCAAGCGCAAGCGGGACGAGUGGCUGGCACGCUGGAAAAGGGAGGCUGAGAAGAAAGCCAAGGUCAUUGCAGGA | 0.161 |

Block 5
Target: Interferon regulatory factor 7, full length, phosphomimetic (IRF7, Homo sapiens, UniProt Q92985, residues 1-503, S101K/S471D/S472D/S475D/S476D/S477D/S483D/S484D/S487D)
Sequence of UniProt Q92985 (whole entry, unmodified, looked up): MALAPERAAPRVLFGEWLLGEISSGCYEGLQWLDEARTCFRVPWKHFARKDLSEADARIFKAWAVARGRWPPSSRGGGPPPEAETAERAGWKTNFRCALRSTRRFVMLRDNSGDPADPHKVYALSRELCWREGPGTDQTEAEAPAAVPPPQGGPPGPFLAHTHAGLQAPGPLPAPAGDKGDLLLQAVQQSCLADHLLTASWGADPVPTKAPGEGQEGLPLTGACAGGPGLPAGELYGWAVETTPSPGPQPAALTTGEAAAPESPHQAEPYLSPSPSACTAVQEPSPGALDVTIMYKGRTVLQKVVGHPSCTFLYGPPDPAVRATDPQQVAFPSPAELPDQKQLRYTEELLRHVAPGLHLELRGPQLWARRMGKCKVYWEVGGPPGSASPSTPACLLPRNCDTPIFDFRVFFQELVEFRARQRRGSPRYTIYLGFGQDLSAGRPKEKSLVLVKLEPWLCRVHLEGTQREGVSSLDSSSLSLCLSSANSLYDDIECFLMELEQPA
Method: protein-binding microarray
Molecule type: double-stranded DNA, one strand shown
Medium: in vitro
Tested at: 250 nM
Notes: 60-bp whole probe
With: salmon DNA 0.4 mg/ml
Reference: random background probes
Reading: higher = stronger binding
Shared flanks, not repeated: GCCTAGCAC … GTCTTGATTCGCTTGACGCTGCTG
| Sequence | log fluorescence [z-score] |
| --- | --- |
| GACGATTTCGGCTATCGAGACGTGCTA | -0.0383 |
| ATTGCTTCCTCTTTTTTGTTGTGCTAG | 0.752 |
| GACGATATCAGACTAGAGACGTGCTAG | -0.0183 |
| GACGATATCGGACTGGGGACGTGCTAG | -0.221 |
| TTAGGTTCCCTTTTCCTTTAGTGCTAG | 4.5 |
| TCATTTTTTAGCTTCTCACTGTGCTAG | 0.717 |
| TCAGTTTTGAGCTCTGTCTGGGTGCTA | 0.0151 |
| TTAGGACGGCTTTTCCTTTAGTGCTAG | -0.0908 |
| TCACCTTTCAATCCTAGACTGTGCTAG | 0.954 |
| ATCTTCATGAAATTTTAATAAGTGCTA | -0.0152 |
| ATTTTTTTATCAATCATTTTGTGCTAG | 0.862 |
| CTAGTTTCCATTTTCAGAATGTGCTAG | 11.4 |
| GACGAACTGAGACTGGTGACGTGCTAG | -0.324 |
| TCAATTCTCTGCTTGGGACTGTGCTAG | 0.576 |
| TTAGGTATCCGGACTGGGTTAGTGCTA | -0.381 |
| GACGGTCTCAGTTTCGAGACGTGCTAG | 4.25 |
| TTAGATATCAGACTGGATTTGTGCTAG | -0.139 |
| TAAGGTATCCTTCTCCTTTAGTGCTAG | 0.651 |
| GACGATATCGGGTTTCGACACGTGCTA | 1.67 |
| TCATAACTCATTTTCATACTGTGCTAG | 0.436 |
| GACTGTTTCCTTTTCCTGACGTGCTAG | 4.01 |
| GACGGTATCCTTCTACTGACGTGCTAG | 0.0466 |
| GACGGACTGGACGTTCGGGACGTGCTA | -0.813 |
| TTAGATATCAGACTGGATTGGTGCTAG | -0.0308 |
| TTATGTTTCCTTCTCCTTTAGTGCTAG | 2.07 |

Block 6
Target: Histone acetyltransferase KAT6A, winged helix 2, GST fusion (KAT6A, Homo sapiens, UniProt Q92794, residues 85-181)
Method: protein binding microarray
Molecule type: double-stranded DNA, one strand shown
Medium: in vitro
Tested at: not given
Notes: 8-mer, flanks averaged, mean of 2 arrays, mostly near background
Reference: not given
Reading: higher = stronger binding
Construct (chain): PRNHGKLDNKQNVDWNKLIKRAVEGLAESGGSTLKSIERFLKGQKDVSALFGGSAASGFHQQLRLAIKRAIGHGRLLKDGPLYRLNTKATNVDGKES
| Sequence | E-score |
| --- | --- |
| GGGGCCGA | 0.146 |
| GAGGGTGA | 0.0296 |
| CCTTACCA | -0.196 |
| TGTCAGAA | 0.0929 |
| ACACACGT | -0.22 |
| GAAGGGCA | 0.076 |
| CTTTGGAC | 0.0972 |
| AAGACGCG | -0.0434 |
| CCGACTCC | 0.00136 |
| GTTCCGCA | 0.041 |
| GGTACCGA | 0.0205 |
| ACTAATAC | 0.0664 |
| AGAACGGC | 0.0529 |
| CATACAGG | -0.0732 |
| GTCCGCCA | 0.0843 |
| ATGCGGAA | 0.0327 |
| AGACCAAC | 0.00534 |
| CTCCAAAC | 0.0244 |
| AAATCATG | -0.0647 |
| TCTGAAGA | 0.0491 |
| CTTATTTC | 0.064 |
| GCAAGCGC | 0.119 |
| AAACCTGT | -0.131 |
| ACTTCAAA | -0.0971 |
| CTCTTAAA | 0.107 |
